Results collected from several papers.
Each numbered part is a random draw from the data of one study; scales do not carry over between parts.

Sample 1
Target: RNA binding protein fox-1 homolog 2, RRM domain, GST-SBP tag (RBFOX2, Homo sapiens, UniProt O43251-10, residues 100-194)
Technique: RNA Bind-n-Seq
Form: RNA
Sample: in vitro
Tested at: 365 nM
Setting: natural RNA segment, single round, ends assumed
Relative to: no-protein control
Direction: higher = stronger binding
Endpoint: RBNS enrichment (R)
Shared flanks, not repeated: GGGAGUUCUACAGUCCGACGAUC … UGGAAUUCUCGGGUGCCAA
Residues (chain): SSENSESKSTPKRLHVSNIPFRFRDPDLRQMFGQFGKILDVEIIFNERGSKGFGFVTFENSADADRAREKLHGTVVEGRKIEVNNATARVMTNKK
AAGCAAUUCCCAUUGCAGCAGGUUAGAGCGAGAAUCAGACAGAGGGCAAAAACCAAUUCGCUUCUCCCCACGUUCUAAAUGCUGGGGCAUGGCUGUCAGGAGGGCUUCCU: 0.233
AAGCCUUAUUUUUAAAAUCCCCCAUUCUUGCUCAGAUUAAAAAUUGCCAAAAUACCUUCUGAACUAAGUUGCGUUGUGCUGAGAACACCUAAGCACUAAACUCUCUUGAG: 0.62
CUUCAUCCAGGGGCUGGGCUUCGGGUCUUCAGGAGUGGGCCUUGGCUGGUGCUGGUGCCAUGGACUCUGCCCAGAGCCUUCUUGUUUAUGAUCAGCUCCAGCUACCUGGG: 0.447
AUUGAAUGAGACAAUGCCCACGAAAUGCCCAGUUACAGUACCUGGUUCAAAACUUACUGCAUUUUAAUUUUUCACUUAACUUAUAACAUGUCUUGCUUCUCCAGUGUGUG: 2.84
UCGUCCCUGCGCAGUCACCAAAGGGUGCACACUGGGCAACGGCCUUUCAGCUGUGGCAUCUGUGGCAAAAGCUUCUCCCAACGGUCAGCACUUAUCCCCCACGCCCGCAG: 0.492
AAGGAGGCCUCGUGGGAUCCUUUAGUGCCAAGCCUGGCGUCCCUGGCCUCAAUUCCGACCUGAGCCCCGGCCACUUUUAGGCCAUCCUCGGACUUGUCGCCCCUUCCCAG: 0.405
AGGGUACCCACCAGGCAGCUCACCAAGUCUCUGCUUUUGUAAAUUAAUUUUUUACCAUUGCUACGUGUCCCACCUGCUGUUUACAAUAAAGGCAGAUGUGUGACAGGCCU: 0.337
UCCUGCACGUAGCUGAGUGAGCUUAAGCCUUUAGUUUGGGGUGUGAAUAGGGAUCUGUGGUAGCCAGUGUUCCUAUGUUCUGCUAGUACCUGGGUCACCAGCCAUAGGGU: 2.13

Sample 2
Target: Sal-like protein 4, full length isoform B (SALL4, Homo sapiens, UniProt Q9UJQ4-2, residues 1-616)
Technique: universal PBM
Form: double-stranded DNA, one strand shown
Sample: in vitro
Tested at: not given
Setting: 8-mer, flanks averaged, mean of replicates
Direction: higher = stronger binding
Endpoint: E-score
TATCACCA: 0.153
CCCCCATC: -0.166
AAGTTGAT: 0.106
CCCAAACA: 0.00837
AGTGATAT: 0.227
AAGGCAGG: 0.0488
GAACTGGC: -0.272
ATGTAAAA: 0.304
ACCTCACC: -0.136
AAGCACGG: -0.298
CATCGATA: 0.119
GATCGATA: 0.231
AGCCATGG: -0.173
ACGGTCGG: -0.228
CTGTACCA: -0.0348
CTGCCTGC: -0.201
ACAGGAGC: -0.0569
AATGGCGG: -0.23
ACCACAGC: -0.25
CGTCTCTC: -0.0883
GAAGTTGA: -0.126
TAAGGGGA: -0.0366
CAGTTATA: 0.263

Sample 3
Target: RING finger protein unkempt homolog, zinc fingers 1-6, GST-SBP tag (UNK, Homo sapiens, UniProt Q9C0B0, residues 30-357)
Technique: RNA Bind-n-Seq
Form: RNA
Sample: in vitro
Tested at: not given
Setting: RNA with constant flanks, human-mouse chimeric sites, ends assumed
Relative to: input RNA pool
Direction: higher = stronger binding
Endpoint: bound/input enrichment
Shared flanks, not repeated: GGGAGUUCUACAGUCCGACGAUC … CAACAGAGGAUUGAGCAUCA
Construct (chain): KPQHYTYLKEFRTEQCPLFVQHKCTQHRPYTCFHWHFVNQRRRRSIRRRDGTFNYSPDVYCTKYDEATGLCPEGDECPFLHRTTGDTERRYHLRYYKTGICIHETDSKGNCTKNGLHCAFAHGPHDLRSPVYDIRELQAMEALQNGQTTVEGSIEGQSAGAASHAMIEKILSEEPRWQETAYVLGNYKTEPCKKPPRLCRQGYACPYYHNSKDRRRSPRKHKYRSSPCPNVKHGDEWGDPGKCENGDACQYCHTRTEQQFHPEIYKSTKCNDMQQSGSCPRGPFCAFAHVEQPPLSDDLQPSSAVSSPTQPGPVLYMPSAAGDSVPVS
AAAGUGAUGACUAUGUUUGUACAGCGACAGGUAUUUUCGGAGAGCAAAGAUGAGAUUGCGUUAGUCCUCUAUGGCACAGAUGGCACUGAUAAUGCCCUUGCUGGCAAGGACCAGUAUCAG: 0.161 ratio
UUAAUCCCCUUCGUUGCUCCCCCACUUCUCAUGGUAAUAACAAAGUCUUAUAUUCCCGUCCUAGCUUUCACUCAGAUGGCUUAUGGAGCCGGUUUCCUAGCUUUCUUGGGAGGGAUCAGA: 0.388 ratio
ACCUCCCCCUCCCGCCUGCUUUUUGAACCGCUUUUUGGAAAGUUUUUGGCGUUUCUUUUCCUUCCCCAUACAAAGUGAUUACAGUUUCCCCCGCAAGUGGGGCUUGAAGGGCUUGACGGA: 0.58 ratio
CAGCGCCGAGGCCGCGGGUGCCCGCCGGGCCUCCCCAGCAGCAGCCAUGGGCAUCAAAUUUUUAGAAGUUAUCAAACCAUUCUGUGCAGUUCUACCAGAAAUUCAGAAACCGGAAAGGAA: 1.11 ratio
AGAGAUAAGACAUCCAGGAACAUGCGAGGCUCCCGGAUGAAUGGGUUGCCUAGCCCCACUCAUAGUGCCCACUGUAGCUUCUACAGAACCAGAACCUUGCAGGCACUGAGUAAUGAGAAG: 0.0907 ratio
GAGUCGAGCAAACUUGAAACUACAGAAUAUCUUGCAGCCUCAGUGUUCACUUGCUUGGCGAUAGCAUAUUGGGAUUUUAGGUUCUGGAAGGAGAACUGACGAUGAUGCUGCCGCUGCUGC: 0.577 ratio
UCUGGCCACACUCGUGUGUAUGGUGUUUGCUUUGUGGACACUUCACUGGGCAAGUUUUUCAUCGGCCAGUUUUCGGAUGACCGCCACUGUUCGAGAUUUAGGACGCUAGUGGCUCACUAU: 0.203 ratio
GUUGCCAGCUUCCGGUUCCGUUGGGCUCGGUUCUCUCCUGAGCUACGUGUCUCUACGCUCUCAAUCCGCCAUCCAACAAACAUGGAUGAUCAGGUAAAGUUUGUGGAUGAGCCAAGUCAG: 0.0466 ratio

Sample 4
Target: Centromere-binding protein 1, full length, His-tagged (CBF1, Saccharomyces cerevisiae, UniProt P17106, residues 1-351)
UniProt P17106, sequence (whole entry, looked up): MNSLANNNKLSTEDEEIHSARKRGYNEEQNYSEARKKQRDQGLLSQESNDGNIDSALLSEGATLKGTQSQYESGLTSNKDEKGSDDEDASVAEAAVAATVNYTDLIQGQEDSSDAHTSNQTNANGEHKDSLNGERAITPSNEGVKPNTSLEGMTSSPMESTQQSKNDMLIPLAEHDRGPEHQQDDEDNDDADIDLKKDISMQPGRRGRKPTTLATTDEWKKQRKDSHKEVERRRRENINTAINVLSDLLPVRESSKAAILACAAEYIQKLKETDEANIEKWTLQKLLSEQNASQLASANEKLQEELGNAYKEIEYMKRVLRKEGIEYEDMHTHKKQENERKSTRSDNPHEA
Technique: competition protein-binding microarray
Form: double-stranded DNA, one strand shown
Sample: in vitro
Tested at: 2 µM
Setting: whole 60-bp probe, lowest competitor level
With: Pho4 competitor, 0.05 µM
Direction: higher = stronger binding
Endpoint: fluorescence intensity
Shared flanks, not repeated: … GTCTTGATTCGCTTGACGCTGCTG
GAGCCTGTCGCCTCTTACATGACAAAAATGTTGGAA: 79.6 a.u.
GTCTTGTCTCATTGCGCCGTGGGTGTCCCCACTTCA: 82.7 a.u.
CCAAGGAAGATGACGTTCGTGATGGCGTCATCAGAA: 67.7 a.u.
CTAACGAAGGTTTTTCACGTGCAGTACAAGCCAAGT: 968 a.u.
GCACCCGGCCTGCGCTGCGTGCAATGACTGCGGGCG: 48.3 a.u.
GGGTGTCGATACCGTCACGTGAAGACATTCCAAGTC: 3650 a.u.
CGGGGTTAAGTTTGCAGAGTGGGTGGCTTGCAGCAG: 65 a.u.
TGCGCAACAACTTGGGCAGTGGGTGTATGTCTAGAA: 65 a.u.
TGCGCAACAACTTGTTAGGTGGGTGTATGTCTAGAA: 68.3 a.u.
CTAACGAAGGTTTGTCACGGAACTTACAAGCCAAGT: 91.5 a.u.
CGTCCTAGTGATTTTCACGTGGCCTCCATGAGGAAG: 906 a.u.
AAAGCGGTAATTTGTCGTGTGGGTGCAGATATCTAT: 66.5 a.u.
CATACCCAACCTTGGTCTGTGGGTGAAGATATTTGT: 74.6 a.u.
CTTCTGTAAATTTGTCTAGTGGGTGGACGCGCCCCG: 82.1 a.u.
ATGGATTGTCTCTGGCACGTTCCACTGGTGGCTCAG: 78.2 a.u.
CCAAGCCGCCAGCCCCGCGTGCGGCCTGCCGCGAGG: 45.6 a.u.
AAGACAAATGGTCGGCCCGTGACGGTTGCAGGCCCA: 97.8 a.u.
AATTCCTTATGCGGGCCCGGTCAGAACGGATTATAG: 59.9 a.u.
CATGTCTTGCACTGTCACACGATTGTAATTCAATTG: 134 a.u.

Excerpt of the above (sample 1):
AAGCAAUUCCCAUUGCAGCAGGUUAGAGCGAGAAUCAGACAGAGGGCAAAAACCAAUUCGCUUCUCCCCACGUUCUAAAUGCUGGGGCAUGGCUGUCAGGAGGGCUUCCU: 0.233
AAGCCUUAUUUUUAAAAUCCCCCAUUCUUGCUCAGAUUAAAAAUUGCCAAAAUACCUUCUGAACUAAGUUGCGUUGUGCUGAGAACACCUAAGCACUAAACUCUCUUGAG: 0.62
CUUCAUCCAGGGGCUGGGCUUCGGGUCUUCAGGAGUGGGCCUUGGCUGGUGCUGGUGCCAUGGACUCUGCCCAGAGCCUUCUUGUUUAUGAUCAGCUCCAGCUACCUGGG: 0.447
AUUGAAUGAGACAAUGCCCACGAAAUGCCCAGUUACAGUACCUGGUUCAAAACUUACUGCAUUUUAAUUUUUCACUUAACUUAUAACAUGUCUUGCUUCUCCAGUGUGUG: 2.84
UCGUCCCUGCGCAGUCACCAAAGGGUGCACACUGGGCAACGGCCUUUCAGCUGUGGCAUCUGUGGCAAAAGCUUCUCCCAACGGUCAGCACUUAUCCCCCACGCCCGCAG: 0.492
AAGGAGGCCUCGUGGGAUCCUUUAGUGCCAAGCCUGGCGUCCCUGGCCUCAAUUCCGACCUGAGCCCCGGCCACUUUUAGGCCAUCCUCGGACUUGUCGCCCCUUCCCAG: 0.405
